Earlier results, collected from citations in different studies.
Each line is one published result; not all experiments were run side by side. ± gives the spread as reported.
UniProt Q5VT25, sequence (whole entry, looked up): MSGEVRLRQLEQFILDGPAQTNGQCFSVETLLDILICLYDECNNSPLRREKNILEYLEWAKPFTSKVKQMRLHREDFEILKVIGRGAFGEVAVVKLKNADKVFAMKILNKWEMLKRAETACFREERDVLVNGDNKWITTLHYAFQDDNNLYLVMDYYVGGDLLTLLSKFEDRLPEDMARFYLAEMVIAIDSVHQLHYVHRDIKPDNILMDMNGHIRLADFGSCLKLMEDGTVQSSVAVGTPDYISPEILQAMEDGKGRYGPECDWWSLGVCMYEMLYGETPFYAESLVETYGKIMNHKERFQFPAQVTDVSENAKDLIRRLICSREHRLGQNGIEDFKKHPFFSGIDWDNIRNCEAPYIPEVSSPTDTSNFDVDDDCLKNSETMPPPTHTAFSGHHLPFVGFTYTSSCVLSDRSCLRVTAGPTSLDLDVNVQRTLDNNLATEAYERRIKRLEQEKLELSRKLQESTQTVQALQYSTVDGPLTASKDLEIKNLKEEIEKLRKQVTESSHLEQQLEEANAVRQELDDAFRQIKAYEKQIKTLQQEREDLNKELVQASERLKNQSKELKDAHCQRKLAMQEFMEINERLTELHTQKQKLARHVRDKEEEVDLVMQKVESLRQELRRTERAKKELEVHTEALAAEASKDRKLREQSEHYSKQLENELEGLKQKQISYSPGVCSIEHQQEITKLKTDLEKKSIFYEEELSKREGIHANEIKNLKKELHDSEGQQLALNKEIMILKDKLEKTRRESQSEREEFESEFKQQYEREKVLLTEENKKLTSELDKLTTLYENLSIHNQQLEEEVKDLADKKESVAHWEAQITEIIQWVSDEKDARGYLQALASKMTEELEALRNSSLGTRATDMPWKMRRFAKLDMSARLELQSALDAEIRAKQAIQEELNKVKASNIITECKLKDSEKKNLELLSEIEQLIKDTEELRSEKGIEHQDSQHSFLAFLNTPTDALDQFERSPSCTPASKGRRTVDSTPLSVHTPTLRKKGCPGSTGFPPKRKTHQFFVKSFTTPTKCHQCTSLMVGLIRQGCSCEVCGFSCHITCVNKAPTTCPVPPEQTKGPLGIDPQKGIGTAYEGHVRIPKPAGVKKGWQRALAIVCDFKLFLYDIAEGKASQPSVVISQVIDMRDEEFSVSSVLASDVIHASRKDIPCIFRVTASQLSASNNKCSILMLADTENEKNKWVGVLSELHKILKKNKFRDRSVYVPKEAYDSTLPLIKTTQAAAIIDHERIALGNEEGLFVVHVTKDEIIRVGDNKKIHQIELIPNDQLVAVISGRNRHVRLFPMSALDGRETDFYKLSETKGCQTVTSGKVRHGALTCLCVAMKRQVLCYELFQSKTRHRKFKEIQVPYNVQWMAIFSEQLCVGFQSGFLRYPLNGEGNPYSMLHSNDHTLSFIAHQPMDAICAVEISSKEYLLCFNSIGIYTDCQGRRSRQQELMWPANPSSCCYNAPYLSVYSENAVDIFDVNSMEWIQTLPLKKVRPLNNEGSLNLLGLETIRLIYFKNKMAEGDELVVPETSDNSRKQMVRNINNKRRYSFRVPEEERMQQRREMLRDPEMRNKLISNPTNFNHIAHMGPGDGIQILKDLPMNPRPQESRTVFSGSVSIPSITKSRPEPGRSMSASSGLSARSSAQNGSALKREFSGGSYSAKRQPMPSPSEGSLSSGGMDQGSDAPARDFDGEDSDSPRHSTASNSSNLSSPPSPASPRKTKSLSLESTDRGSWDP

`CNC(=O)c1ccc(N2C(=S)N(c3ccc(C#N)c(C(F)(F)F)c3)C(=O)C2(C)C)cc1F` has a half-life of ~139 h (human).
For `COc1cc(O)c(CC=C(C)C)c(O)c1C(=O)/C=C/c1ccc(O)cc1`, the half-life was 20 h (human; 60 mg).
For `CC(C(=O)O)c1ccc(-c2ccccc2)c(F)c1` (stereo not shown), the half-life was 3 to 4 h (human).
`CCOc1cc2ncc(C#N)c(Nc3ccc(OCc4ccccn4)c(Cl)c3)c2cc1NC(=O)/C=C/CN(C)C` gave a half-life of 13.9 h (human; 240 mg, single dose).
For `Cn1ncnc1[C@H]1c2n[nH]c(=O)c3cc(F)cc(c23)N[C@@H]1c1ccc(F)cc1`, the half-life was 52.9 ± 3.4 h (human adults; 1000 µg/day).
`C=CC(=O)N1CCC(CNc2ncnc(N)c2-c2ccc(Oc3ccccc3)cc2)CC1` gave a half-life of 2.09 h (human; 75 mg once daily).
`COc1ccc2c(c1)c(CC(=O)O)c(C)n2C(=O)c1ccc(Cl)cc1` gave a half-life of 4.5 h (human).
For `CO[C@@H](C)Cn1c(=O)n(C)c2cnc3ccc(-c4cncc(C(C)(C)O)c4)cc3c21`, the half-life was 1.82 h (human; 20 to 325 mg, doses combined, geometric mean).
The half-life of `CCC(C)n1ncn(-c2ccc(N3CCN(c4ccc(OCC5COC(Cn6cncn6)(c6ccc(Cl)cc6Cl)O5)cc4)CC3)cc2)c1=O` (stereo not shown) is reported as ~18 h (human).
`Cc1ccc([C@@H]2O[C@H](CO)[C@@H](O)[C@H](O)[C@H]2O)cc1Cc1ccc(-c2ccc(F)cc2)s1` gave a half-life of 13.5 h (human, preserved kidney function; 300 mg, steady state, mean).
`Nc1cc(C(F)(F)F)c(-c2nc(N3CCOCC3)nc(N3CCOCC3)n2)cn1` has a remaining activity of 100% (CDC42BPA (Homo sapiens, UniProt Q5VT25); enzyme activity; 10 µM; reference: untreated).
The half-life of `CN(C)c1ccc2nc3ccc(=[N+](C)C)cc-3sc2c1` is reported as ~10 h (human).
`CC(C)(/C=C(\C#N)C(=O)N1CCC[C@@H](n2nc(-c3ccc(Oc4ccccc4)cc3F)c3c(N)ncnc32)C1)N1CCN(C2COC2)CC1` has a half-life of 3.9 h (human; 600 mg once daily).
For `CCCn1cc(C)c2c(=O)[nH]c(-c3cc(S(=O)(=O)N4CCN(CC)CC4)ccc3OCC)nc21`, the half-life was 4.1 ± 1.5 h (human; oral, 100 mg single dose).
`CC#CC(=O)N[C@H]1CCCN(c2c(F)cc(C(N)=O)c3[nH]c(C)c(C)c23)C1` has a half-life of 1.63 h (human; 10 mg once daily).
`CNC(=O)n1ccc2cc(Oc3ccnc(NC(=O)c4ccc(C5CCN(CCO)CC5)cc4)c3)c(OCCOC)cc21` gave a half-life of ~20 h (human; estimated).
For `CC#CC(=O)N1CCC[C@H]1c1nc(-c2ccc(C(=O)Nc3ccccn3)cc2)c2c(N)nccn12`, the half-life was 1.13 h (human; 100 mg twice daily).
`CC(C)[C@H](C(=O)Nc1ccc(C(=O)NO)cc1)c1ccccc1` has a half-life of 10.1 h (human; oral, 20 mg).
For `COc1cc2c(Oc3ccc4[nH]c(C)cc4c3F)ccnc2cc1OCC1(N)CC1`, the half-life was 116 ± 47 h (human; 12 mg single dose).
`CCC(C)n1ncn(-c2ccc(N3CCN(c4ccc(OCC5COC(Cn6cncn6)(c6ccc(Cl)cc6Cl)O5)cc4)CC3)cc2)c1=O` (stereo not shown) has a half-life of ~20 h (human; dose not given).
`NC[C@H]1O[C@H](O[C@H]2[C@H](O)[C@@H](O[C@H]3O[C@H](CO)[C@@H](O)[C@H](N)[C@H]3O)[C@H](N)C[C@@H]2N)[C@H](N)C[C@@H]1O` gave a half-life of 1.92 h (human).
For `CCN(CC)Cc1ccc2cc(COC(=O)Nc3ccc(C(=O)NO)cc3)ccc2c1`, the half-life was 6 h (healthy male humans; oral, 100 mg).

Some of these lines once more:
For `CC#CC(=O)N1CCC[C@H]1c1nc(-c2ccc(C(=O)Nc3ccccn3)cc2)c2c(N)nccn12`, the half-life was 1.13 h (human; 100 mg twice daily).
`NC[C@H]1O[C@H](O[C@H]2[C@H](O)[C@@H](O[C@H]3O[C@H](CO)[C@@H](O)[C@H](N)[C@H]3O)[C@H](N)C[C@@H]2N)[C@H](N)C[C@@H]1O` gave a half-life of 1.92 h (human).
